Measured values from different studies.
Protocols differ between the studies behind these lines. Several values in a cell are separate wells, animals, samples, runs or records. ± gives the spread as reported. In brackets after ≈: the same amount, converted by molar mass.
Chain of UniProt Q14680 (whole entry, looked up): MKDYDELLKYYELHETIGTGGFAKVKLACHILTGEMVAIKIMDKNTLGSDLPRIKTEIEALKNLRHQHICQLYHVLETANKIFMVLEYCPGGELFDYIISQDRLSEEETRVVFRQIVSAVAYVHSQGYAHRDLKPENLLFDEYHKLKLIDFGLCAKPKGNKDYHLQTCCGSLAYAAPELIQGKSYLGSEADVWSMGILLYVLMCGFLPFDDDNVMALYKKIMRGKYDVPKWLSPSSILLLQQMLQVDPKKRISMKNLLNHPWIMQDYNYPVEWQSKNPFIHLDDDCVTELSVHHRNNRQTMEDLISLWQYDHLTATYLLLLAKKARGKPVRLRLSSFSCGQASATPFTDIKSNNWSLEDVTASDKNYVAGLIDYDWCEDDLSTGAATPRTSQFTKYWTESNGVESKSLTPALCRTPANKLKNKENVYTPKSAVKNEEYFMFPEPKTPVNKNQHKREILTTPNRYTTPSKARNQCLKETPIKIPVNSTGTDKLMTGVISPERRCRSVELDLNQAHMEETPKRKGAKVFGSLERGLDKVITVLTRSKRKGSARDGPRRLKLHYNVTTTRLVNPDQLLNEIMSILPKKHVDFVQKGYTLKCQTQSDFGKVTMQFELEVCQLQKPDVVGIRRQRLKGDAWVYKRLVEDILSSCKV
Chain of UniProt O15245 (whole entry, looked up): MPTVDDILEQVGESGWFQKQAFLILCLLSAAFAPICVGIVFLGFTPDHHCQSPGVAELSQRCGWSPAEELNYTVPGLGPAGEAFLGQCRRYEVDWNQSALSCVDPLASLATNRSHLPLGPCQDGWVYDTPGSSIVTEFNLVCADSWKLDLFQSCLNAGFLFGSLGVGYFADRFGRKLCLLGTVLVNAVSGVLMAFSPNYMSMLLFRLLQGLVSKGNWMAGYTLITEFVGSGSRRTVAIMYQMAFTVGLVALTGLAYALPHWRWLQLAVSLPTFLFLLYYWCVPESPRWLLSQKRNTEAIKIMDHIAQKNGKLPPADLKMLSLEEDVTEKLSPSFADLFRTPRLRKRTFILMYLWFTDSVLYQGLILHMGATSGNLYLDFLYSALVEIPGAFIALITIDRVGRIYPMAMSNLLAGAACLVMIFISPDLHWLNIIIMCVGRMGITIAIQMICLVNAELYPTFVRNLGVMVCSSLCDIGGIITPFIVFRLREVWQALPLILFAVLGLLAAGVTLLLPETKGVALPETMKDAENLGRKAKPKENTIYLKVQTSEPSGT
Chain of UniProt Q15418 (whole entry, looked up): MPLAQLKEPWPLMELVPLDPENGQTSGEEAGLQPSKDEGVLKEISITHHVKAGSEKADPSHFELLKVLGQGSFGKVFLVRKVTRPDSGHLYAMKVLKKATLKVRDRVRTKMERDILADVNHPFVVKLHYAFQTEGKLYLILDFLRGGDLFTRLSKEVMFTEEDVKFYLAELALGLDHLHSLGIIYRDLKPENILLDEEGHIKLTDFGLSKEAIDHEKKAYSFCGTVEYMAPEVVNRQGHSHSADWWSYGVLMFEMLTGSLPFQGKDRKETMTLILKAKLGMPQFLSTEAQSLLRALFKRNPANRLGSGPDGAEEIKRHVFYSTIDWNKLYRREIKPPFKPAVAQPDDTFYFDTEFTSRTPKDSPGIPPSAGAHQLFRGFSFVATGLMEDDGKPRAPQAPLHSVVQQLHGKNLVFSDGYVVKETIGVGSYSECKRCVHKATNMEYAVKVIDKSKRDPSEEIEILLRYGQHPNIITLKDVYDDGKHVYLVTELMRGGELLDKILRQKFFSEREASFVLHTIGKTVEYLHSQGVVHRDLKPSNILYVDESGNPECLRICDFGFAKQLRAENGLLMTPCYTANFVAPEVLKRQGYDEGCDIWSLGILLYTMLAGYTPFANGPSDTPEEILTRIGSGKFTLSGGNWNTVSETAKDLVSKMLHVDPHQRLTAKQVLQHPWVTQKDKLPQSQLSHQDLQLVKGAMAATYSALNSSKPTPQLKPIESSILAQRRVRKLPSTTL
Chain of UniProt Q13976 (whole entry, looked up): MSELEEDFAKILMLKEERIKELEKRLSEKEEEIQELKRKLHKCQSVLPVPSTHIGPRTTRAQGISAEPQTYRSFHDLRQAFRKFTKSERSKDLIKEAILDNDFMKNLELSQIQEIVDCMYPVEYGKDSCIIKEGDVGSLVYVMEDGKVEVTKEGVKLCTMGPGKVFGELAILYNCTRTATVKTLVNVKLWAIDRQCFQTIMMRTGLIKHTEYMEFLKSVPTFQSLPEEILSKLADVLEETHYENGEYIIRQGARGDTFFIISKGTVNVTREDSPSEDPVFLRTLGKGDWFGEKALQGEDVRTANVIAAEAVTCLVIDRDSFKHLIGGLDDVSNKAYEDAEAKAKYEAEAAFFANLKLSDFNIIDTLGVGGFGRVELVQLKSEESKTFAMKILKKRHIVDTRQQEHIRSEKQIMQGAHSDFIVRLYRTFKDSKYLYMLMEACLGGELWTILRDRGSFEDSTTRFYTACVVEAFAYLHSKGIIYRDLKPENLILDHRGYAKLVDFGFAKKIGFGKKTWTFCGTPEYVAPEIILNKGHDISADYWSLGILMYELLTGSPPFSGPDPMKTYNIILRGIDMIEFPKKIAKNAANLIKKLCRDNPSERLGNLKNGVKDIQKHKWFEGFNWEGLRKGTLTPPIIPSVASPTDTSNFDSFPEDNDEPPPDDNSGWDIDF

SMILES	target or system	test	test system	setting	how to read	measurement	value
O=C1NC2(CC2)COc2ncc(F)cc2[C@H]2COCCN2c2ccn3ncc1c3n2	–	–	Sprague-Dawley rat, female, serum	oral, 5 mg/kg/day, 4 weeks daily, end of treatment	–	aspartate aminotransferase activity	108 ± 18.3 U/L
C[C@H]1[C@@H](OCc2cn(-c3cc4ccc(O)cc4oc3=O)nn2)O[C@@H]2O[C@@]3(C)CC[C@H]4[C@H](C)CC[C@@H]1[C@@]24OO3	Plasmodium berghei	flow cytometry	infected mouse blood	3 µM, 1 h	–	uptake into parasites	28.2 ± 2 % stained cells
COc1ccc2c3c1O[C@H]1[C@H](O)C=C[C@H]4[C@@H](C2)N(C)CC[C@@]341	–	potentiometric titration	methanol/water, extrapolated to water	–	–	log K	8.37
NC[C@]1(CC(=O)O)CC[C@H]([18F])CC1	–	PET	rhesus monkey, brain	intravenous, 9 min, baseline scan, after decrease	–	SUV	0.45
Oc1ccc2c3c1OC1C(O)C=CC4C(C2)N(CC2CCC2)CCC341 (centres unmarked)	–	–	–	–	–	log tautomerization constant	0.06
COc1ccccc1-c1n[nH]c2nc(N[C@H]3CC[C@H](NS(=O)(=O)CC(C)C)CC3)ncc12	–	bead binding, competition bead pull-down, measured: LINJ.28.2600	Leishmania donovani extract	10 µM	relative to: vehicle	relative abundance	1.17
Cc1nc2cccc(OCC(C)(C)C(=O)NC(C)C)c2c(N)c1C(=O)[O-].[Na+]	Escherichia coli	reverse mutation, preincubation	WP2 uvrA	0.13 mg/plate, with rat liver S9	–	revertant colonies	38 ± 7 colonies/plate
CC[C@H](C)[C@H](NC(=O)[C@H](CCCCN)NC(=O)[C@H](CCCCN)NC(=O)[C@H](Cc1ccccc1)NC(=O)[C@H](Cc1ccccc1)NC(=O)[C@H](CCCCN)NC(=O)[C@H](CCCCN)NC(=O)[C@H](Cc1ccccc1)NC(=O)[C@H](CCCNC(=N)N)NC(=O)[C@@H](N)CCCCN)C(=O)N[C@@H](CCCCN)C(=O)N[C@@H](CCCCN)C(=O)N[C@@H](CO)C(=O)N[C@H](C(=O)N[C@@H](CCCCN)C(=O)N[C@@H](CCCCN)C(=O)N[C@@H](CCCNC(=N)N)C(=O)N[C@H](C(=O)N[C@@H](CCCCN)C(=O)N[C@@H](CCCCN)C(=O)N[C@@H](CC(C)C)C(=O)N[C@@H](Cc1ccccc1)C(=O)N[C@@H](CCCCN)C(=O)N[C@@H](CCCCN)C(=O)N1CCC[C@H]1C(=O)N[C@@H](CCCNC(=N)N)C(=O)N[C@H](C(=O)N[C@H](C(=O)N1CCC[C@H]1C(=O)N[C@H](C(=O)N[C@@H](CO)C(=O)N[C@H](C(=O)N1CCC[C@H]1C(=O)N[C@@H](Cc1ccccc1)C(=O)O)[C@@H](C)CC)[C@@H](C)CC)[C@@H](C)CC)C(C)C)C(C)C)C(C)C	Pseudomonas aeruginosa	–	P1, mouse serum	1 h, 37 °C	–	MIC	16 µg/mL (≈ 3.79 µM)
CN1CC[C@]23c4c5ccc(O)c4O[C@H]2[C@H](O)C=C[C@H]3[C@H]1C5	–	–	–	phenolate site	–	log k protonation constant	9.34
Cc1ccc(NS(=O)(=O)c2c(C(=O)N3CCCCCC3)c(C)n(C)c2C)c(Cl)c1	CV-1	–	African green monkey cells	0.015 µM, 60 (unit not given)	–	viability	100% and 90.8%
Cc1cc(-c2ccc3ccccc3c2)nnc1NCCN1CCN(C)CC1	SLC22A1 (Homo sapiens, UniProt O15245)	transporter uptake, inhibitor	–	10 µM	–	inhibition	23%
Cc1ccn2c(-c3csc(Nc4ccccn4)n3)c(C)nc2c1	HEK-293T	cytotoxicity	–	3 days	–	IC50	> 10 µM
Cc1sc2c(c1C)C(c1ccc(Cl)cc1)=N[C@@H](CC(=O)OC(C)(C)C)c1nnc(C)n1-2	–	–	CD1 mouse, male, plasma	intravenous, 5 mg/kg	–	AUC(0-t)	2130 ng·h/mL
CC(C)(C)C(=O)OCOP(=O)(OCOC(=O)C(C)(C)C)C1CCCN(O)C1=O (centres unmarked)	SK-MEL-2	–	–	–	–	TGI	8.76 µM
O=C1CC[C@@]2(O)[C@H]3Cc4ccc(O)c5c4[C@@]2(CCN3CCc2ccccc2)[C@H]1O5	–	–	–	–	–	log k amino protonation	9.84
O=C(/C=C/c1ccc(C(F)(F)F)cc1)c1ccc(NS(=O)(=O)c2ccc(C(F)(F)F)cc2)cc1	Danio rerio	–	wild type, embryos	immersion, up to 120 hpf, exposure from 5 hpf	–	LC50	11.7 µM
CC(=O)NCCCC[C@@H]1NC(=O)[C@H](Cc2c[nH]c3c(C)cccc23)NC(=O)[C@H]([C@@H](C)O)NC(=O)[C@H](CC(N)=O)NC(=O)[C@@H](NC(C)=O)C(C)(C)SSC(C)(C)[C@@H](C(=O)N[C@@H](Cc2ccc(OCCN)cc2)C(=O)N[C@@H](Cc2ccc3ccccc3c2)C(=O)NC2(C(=O)N[C@@H](CCC(=O)O)C(=O)N[C@@H](CC(N)=O)C(=O)N[C@@H](Cc3cccnc3)C(=O)N(C)CC(N)=O)CCOCC2)NC1=O	human alpha-1-acid glycoprotein 0.07%	equilibrium dialysis	–	0.01 µM	–	protein binding	6.68 ± 0.58%
CN1Cc2cc(Cl)ccc2-n2c(nnc2C2CCN(c3cccc([18F])n3)CC2)C1	–	–	C57BL/6 mouse male, spleen	intravenous, 3.7 MBq, 15 min	–	tissue uptake	4.22 ± 1.08 %ID/g
CN1CC[C@]23c4c5ccc(O)c4O[C@H]2[C@H](O)C=C[C@@]3(O)[C@H]1C5	–	–	–	–	–	log k amino protonation	9.63
CNC(=O)C1CCCN(C(=O)C2CC3CCC2N3C(=O)[C@@H]2C[C@@H](O)CN2C(=O)NCc2cccc(Cl)c2F)C1 (mixture of isomers)	CYP3A4 (human)	inhibitor, time-dependent inhibition	–	1.85 µM, preincubated without NADPH, together with: midazolam substrate	relative to: negative control	remaining activity	99.7%
CC(C)[C@H]1NC(=O)C[C@H]2/C=C/CCSSC[C@@H](NC1=O)C(=O)N[C@H](Cc1cccc3ccccc13)C(=O)NCC(=O)O2	RPS6KA1 (Homo sapiens, UniProt Q15418)	enzyme activity, inhibitor	–	10 µM	–	inhibition	-1.3%
O=C1CC[C@H]2[C@H]3Cc4ccc(O)c5c4[C@@]2(CCN3CCc2ccccc2)[C@H]1O5	–	–	–	–	–	log k amino protonation	9.96
COc1ccccc1-c1n[nH]c2nc(NC3CCN(C(=O)Cc4ccc(F)cc4F)CC3)ncc12	–	bead binding, competition bead pull-down, measured: LINJ.30.2340	Leishmania donovani extract	10 µM	relative to: vehicle	relative abundance	0.98
CN(C)[C@H]1C[C@@]23CC[C@@]4(O2)C(=CC[C@]2(C)[C@@H](c5ccc6ccncc6c5)CC[C@H]24)C=C3[C@@H](O)[C@@H]1O	MELK (Homo sapiens, UniProt Q14680)	ATP probe labelling, inhibitor, KiNativ profiling	–	1 µM	–	inhibition	-1.2%
COc1ccc(-n2cc(C(=O)N3C[C@]4(OC(=O)c5ccccc5NC(C)=O)CC[C@H](OC)[C@@]56[C@@H]4C[C@@H]([C@@H]35)[C@@]3(O)C[C@H](OC)[C@H]4C[C@@H]6[C@]3(O)[C@H]4OC)nn2)cc1	–	–	Sprague-Dawley rat, plasma	intravenous, 2 mg/kg, 4.98 min	–	concentration	81.7 ng/mL
CC[C@H](C)[C@H](NC(=O)[C@H](CC(C)C)NC(=O)[C@H](CCCNC(=N)N)NC(=O)CNC(=O)CNC(=O)[C@H](CCCCN)NC(=O)[C@H](CCCNC(=N)N)NC(=O)[C@H](CC(C)C)NC(=O)[C@H](CC(C)C)NC(=O)[C@H](CCCNC(=N)N)NC(=O)[C@@H](NC(=O)[C@H](CC(C)C)NC(=O)[C@@H](N)CO)[C@@H](C)O)C(=O)NCC(=O)N[C@@H](Cc1c[nH]c2ccccc12)C(=O)N[C@@H](CCCNC(=N)N)C(=O)N[C@@H](Cc1c[nH]c2ccccc12)C(=O)N[C@@H](CCC(=O)O)C(=O)N[C@@H](CCCCN)C(=O)N[C@H](C(=O)N[C@@H](CCCNC(=N)N)C(=O)N[C@@H](CC(N)=O)C(=O)N[C@@H](Cc1c[nH]c2ccccc12)C(=O)N[C@H](C(=O)N[C@@H](CCCNC(=N)N)C(=O)N[C@@H](CCCNC(=N)N)C(=O)N[C@H](C(=O)N[C@H](C(=O)N[C@@H](CCC(=O)O)C(=O)N[C@@H](CCCCN)C(=O)N[C@@H](CCCNC(=N)N)C(=O)N[C@@H](CCCCN)C(=O)N1CCC[C@H]1C(=O)N[C@@H](CC(N)=O)C(=O)N[C@@H](CCCCN)C(=O)O)[C@@H](C)CC)[C@@H](C)CC)[C@@H](C)CC)[C@@H](C)O	rat erythrocytes	haemolysis	–	1 h, 37 °C, 2% erythrocytes in PBS	–	HC50	2.84 log10 µg/mL
CS(C)(=O)=Nc1ccc(-c2ccc(-c3nc4cc(O[C@@H]5CO[C@H]6[C@@H]5OC[C@H]6O)[nH]c4cc3F)cc2)cc1	cGMP-dependent protein kinase 1, isoform beta (PRKG1, Homo sapiens, UniProt Q13976)	kinase activity	–	10 µM	–	inhibition	-17%
CN1CC[C@]23c4c5ccc(O)c4O[C@H]2[C@H](O)CC[C@@]3(O)[C@H]1C5	–	–	–	–	–	log tautomerization constant	0.86
CC[C@H](C)[C@H](NC(=O)[C@H](CCCCN)NC(=O)CNC(=O)[C@H](CC(C)C)NC(=O)[C@H](Cc1ccccc1)NC(=O)[C@H](CCCCN)NC(=O)[C@H](CO)NC(=O)[C@H](Cc1ccccc1)NC(=O)[C@H](Cc1c[nH]c2ccccc12)NC(=O)[C@H](CCC(N)=O)NC(=O)[C@@H](NC(=O)[C@H](Cc1ccccc1)NC(=O)CCCCCNC(=O)CN1CCN(CC(=O)O)CCN(CC(=O)O)CCN(CC(=O)O)CC1)C(C)C)C(=O)N[C@@H](CCC(=O)O)C(=O)N1CCC[C@H]1C(=O)N[C@@H](CC(=O)O)C(=O)N[C@H](C(=O)N[C@@H](CO)C(=O)N[C@@H](CCC(N)=O)C(=O)N[C@H](C(=O)N[C@@H](CCC(N)=O)C(=O)N[C@@H](CC(=O)O)C(=O)N1CCC[C@H]1C(=O)N[C@@H](CC(N)=O)C(=O)N[C@@H](CC(=O)O)C(=O)N[C@@H](CCC(N)=O)C(=O)N[C@@H](Cc1ccc(O)cc1)C(=O)N[C@@H](CCC(=O)O)C(=O)N1CCC[C@H]1C(=O)N[C@@H](Cc1ccccc1)C(=O)O)C(C)C)C(C)C [copper-64 labelled]	–	–	GZMB-/- mice, CT26 tumour-bearing, blood	2 h, checkpoint inhibitor-treated	–	tissue uptake	0.92 ± 0.1 %ID/g

Some of these lines once more:
SMILES	target or system	test	test system	setting	how to read	measurement	value
Cc1sc2c(c1C)C(c1ccc(Cl)cc1)=N[C@@H](CC(=O)OC(C)(C)C)c1nnc(C)n1-2	–	–	CD1 mouse, male, plasma	intravenous, 5 mg/kg	–	AUC(0-t)	2130 ng·h/mL
CNC(=O)C1CCCN(C(=O)C2CC3CCC2N3C(=O)[C@@H]2C[C@@H](O)CN2C(=O)NCc2cccc(Cl)c2F)C1 (mixture of isomers)	CYP3A4 (human)	inhibitor, time-dependent inhibition	–	1.85 µM, preincubated without NADPH, together with: midazolam substrate	relative to: negative control	remaining activity	99.7%
